# Measurements from different studies.
# Numbered parts are unrelated; each lists some results of a single study. Values joined by “and” are separate records of one study, mostly repeats; a detail may differ.
# Sequence of UniProt Q8N5S9 (whole entry, looked up): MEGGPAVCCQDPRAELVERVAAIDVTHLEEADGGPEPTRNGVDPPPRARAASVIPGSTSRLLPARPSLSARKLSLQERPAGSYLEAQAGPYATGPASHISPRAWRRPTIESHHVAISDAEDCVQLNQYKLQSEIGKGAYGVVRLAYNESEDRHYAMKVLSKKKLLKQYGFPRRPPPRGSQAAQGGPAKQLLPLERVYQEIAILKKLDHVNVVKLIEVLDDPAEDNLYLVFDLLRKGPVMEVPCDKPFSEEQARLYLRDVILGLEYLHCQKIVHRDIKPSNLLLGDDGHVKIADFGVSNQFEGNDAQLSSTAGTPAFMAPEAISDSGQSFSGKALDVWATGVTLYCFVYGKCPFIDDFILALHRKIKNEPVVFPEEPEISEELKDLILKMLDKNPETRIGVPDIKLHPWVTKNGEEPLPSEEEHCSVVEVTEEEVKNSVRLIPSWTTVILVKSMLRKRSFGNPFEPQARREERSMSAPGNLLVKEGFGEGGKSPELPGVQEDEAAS
# Sequence of UniProt P57058 (whole entry, looked up): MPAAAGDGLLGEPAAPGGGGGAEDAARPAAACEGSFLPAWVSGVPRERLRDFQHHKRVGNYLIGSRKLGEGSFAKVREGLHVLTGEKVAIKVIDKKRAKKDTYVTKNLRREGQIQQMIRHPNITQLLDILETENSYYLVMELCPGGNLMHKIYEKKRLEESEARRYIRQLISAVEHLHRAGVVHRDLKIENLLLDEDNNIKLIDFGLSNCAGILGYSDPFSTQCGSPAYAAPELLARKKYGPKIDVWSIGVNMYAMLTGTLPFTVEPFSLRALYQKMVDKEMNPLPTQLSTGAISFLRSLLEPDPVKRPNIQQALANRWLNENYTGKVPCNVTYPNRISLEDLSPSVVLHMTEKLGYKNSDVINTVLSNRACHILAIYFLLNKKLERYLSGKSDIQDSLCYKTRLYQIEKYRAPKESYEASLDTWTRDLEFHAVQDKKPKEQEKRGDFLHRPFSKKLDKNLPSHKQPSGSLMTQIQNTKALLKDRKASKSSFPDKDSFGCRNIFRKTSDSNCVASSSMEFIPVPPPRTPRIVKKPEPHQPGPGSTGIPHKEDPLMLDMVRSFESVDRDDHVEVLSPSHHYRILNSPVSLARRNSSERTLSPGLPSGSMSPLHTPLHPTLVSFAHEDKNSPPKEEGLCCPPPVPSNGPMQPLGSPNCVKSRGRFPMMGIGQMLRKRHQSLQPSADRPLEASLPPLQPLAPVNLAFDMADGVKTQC
# Sequence of UniProt P30530 (whole entry, looked up): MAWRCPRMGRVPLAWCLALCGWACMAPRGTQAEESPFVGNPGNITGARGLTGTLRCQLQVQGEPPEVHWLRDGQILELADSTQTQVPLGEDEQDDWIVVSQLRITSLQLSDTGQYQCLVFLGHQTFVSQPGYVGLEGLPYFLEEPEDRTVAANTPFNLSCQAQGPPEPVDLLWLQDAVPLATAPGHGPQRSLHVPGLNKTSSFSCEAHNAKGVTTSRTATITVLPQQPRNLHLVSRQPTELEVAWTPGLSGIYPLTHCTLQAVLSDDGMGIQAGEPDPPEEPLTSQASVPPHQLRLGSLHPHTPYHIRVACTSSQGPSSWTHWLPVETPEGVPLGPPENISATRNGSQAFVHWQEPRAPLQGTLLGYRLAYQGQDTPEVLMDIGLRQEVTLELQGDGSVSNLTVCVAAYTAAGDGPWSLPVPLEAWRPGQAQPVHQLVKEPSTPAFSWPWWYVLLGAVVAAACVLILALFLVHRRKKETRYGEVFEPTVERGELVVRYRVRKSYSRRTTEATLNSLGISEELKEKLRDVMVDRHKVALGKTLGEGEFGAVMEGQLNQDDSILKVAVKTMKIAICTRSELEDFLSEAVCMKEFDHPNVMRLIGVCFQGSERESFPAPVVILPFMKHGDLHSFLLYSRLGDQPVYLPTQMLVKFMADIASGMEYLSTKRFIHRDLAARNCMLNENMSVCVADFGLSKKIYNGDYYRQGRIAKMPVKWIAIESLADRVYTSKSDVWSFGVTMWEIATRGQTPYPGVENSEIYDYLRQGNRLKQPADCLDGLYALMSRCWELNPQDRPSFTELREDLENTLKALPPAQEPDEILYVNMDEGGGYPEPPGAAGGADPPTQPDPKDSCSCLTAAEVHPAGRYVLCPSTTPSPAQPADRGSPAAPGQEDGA
# Sequence of UniProt Q9Y2H9 (whole entry, looked up): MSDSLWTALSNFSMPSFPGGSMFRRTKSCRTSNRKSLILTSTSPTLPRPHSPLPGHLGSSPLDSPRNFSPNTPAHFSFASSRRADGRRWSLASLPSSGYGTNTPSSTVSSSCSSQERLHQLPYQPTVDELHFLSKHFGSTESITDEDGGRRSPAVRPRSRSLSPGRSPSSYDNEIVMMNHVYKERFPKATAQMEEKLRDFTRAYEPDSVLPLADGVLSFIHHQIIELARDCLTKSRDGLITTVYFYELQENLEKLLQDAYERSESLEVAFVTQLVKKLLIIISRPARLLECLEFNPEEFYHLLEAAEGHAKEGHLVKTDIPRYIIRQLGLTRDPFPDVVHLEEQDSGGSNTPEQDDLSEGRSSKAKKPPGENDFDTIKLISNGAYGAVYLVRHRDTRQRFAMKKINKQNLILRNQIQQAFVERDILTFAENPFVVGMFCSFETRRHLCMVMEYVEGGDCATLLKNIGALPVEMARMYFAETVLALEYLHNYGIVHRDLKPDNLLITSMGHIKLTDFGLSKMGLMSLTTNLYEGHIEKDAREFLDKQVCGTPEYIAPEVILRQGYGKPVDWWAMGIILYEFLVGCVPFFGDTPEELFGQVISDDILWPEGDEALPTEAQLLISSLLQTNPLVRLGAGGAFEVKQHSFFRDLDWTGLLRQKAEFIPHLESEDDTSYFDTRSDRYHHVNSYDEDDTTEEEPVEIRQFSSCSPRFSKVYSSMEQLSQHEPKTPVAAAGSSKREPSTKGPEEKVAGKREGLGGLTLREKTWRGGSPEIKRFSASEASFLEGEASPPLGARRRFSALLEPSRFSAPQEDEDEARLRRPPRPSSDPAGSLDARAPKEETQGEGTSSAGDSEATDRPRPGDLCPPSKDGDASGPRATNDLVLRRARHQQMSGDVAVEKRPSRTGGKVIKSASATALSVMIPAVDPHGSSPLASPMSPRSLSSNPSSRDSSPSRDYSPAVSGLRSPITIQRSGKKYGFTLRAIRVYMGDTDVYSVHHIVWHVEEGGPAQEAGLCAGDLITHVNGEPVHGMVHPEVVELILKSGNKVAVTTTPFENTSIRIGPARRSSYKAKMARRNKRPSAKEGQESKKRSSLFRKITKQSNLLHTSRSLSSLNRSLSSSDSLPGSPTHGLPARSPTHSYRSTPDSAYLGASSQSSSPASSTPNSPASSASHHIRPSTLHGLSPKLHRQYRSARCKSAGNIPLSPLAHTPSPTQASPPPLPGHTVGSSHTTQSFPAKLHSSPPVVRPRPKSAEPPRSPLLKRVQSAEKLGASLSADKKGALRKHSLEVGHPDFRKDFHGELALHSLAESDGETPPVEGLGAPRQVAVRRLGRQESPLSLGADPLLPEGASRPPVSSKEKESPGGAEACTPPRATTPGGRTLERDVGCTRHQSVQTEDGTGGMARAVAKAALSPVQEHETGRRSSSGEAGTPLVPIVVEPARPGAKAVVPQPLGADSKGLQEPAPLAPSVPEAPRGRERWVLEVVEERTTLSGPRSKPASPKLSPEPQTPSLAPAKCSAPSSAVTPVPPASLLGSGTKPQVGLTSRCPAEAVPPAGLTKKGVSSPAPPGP
# Sequence of UniProt P51812 (whole entry, looked up): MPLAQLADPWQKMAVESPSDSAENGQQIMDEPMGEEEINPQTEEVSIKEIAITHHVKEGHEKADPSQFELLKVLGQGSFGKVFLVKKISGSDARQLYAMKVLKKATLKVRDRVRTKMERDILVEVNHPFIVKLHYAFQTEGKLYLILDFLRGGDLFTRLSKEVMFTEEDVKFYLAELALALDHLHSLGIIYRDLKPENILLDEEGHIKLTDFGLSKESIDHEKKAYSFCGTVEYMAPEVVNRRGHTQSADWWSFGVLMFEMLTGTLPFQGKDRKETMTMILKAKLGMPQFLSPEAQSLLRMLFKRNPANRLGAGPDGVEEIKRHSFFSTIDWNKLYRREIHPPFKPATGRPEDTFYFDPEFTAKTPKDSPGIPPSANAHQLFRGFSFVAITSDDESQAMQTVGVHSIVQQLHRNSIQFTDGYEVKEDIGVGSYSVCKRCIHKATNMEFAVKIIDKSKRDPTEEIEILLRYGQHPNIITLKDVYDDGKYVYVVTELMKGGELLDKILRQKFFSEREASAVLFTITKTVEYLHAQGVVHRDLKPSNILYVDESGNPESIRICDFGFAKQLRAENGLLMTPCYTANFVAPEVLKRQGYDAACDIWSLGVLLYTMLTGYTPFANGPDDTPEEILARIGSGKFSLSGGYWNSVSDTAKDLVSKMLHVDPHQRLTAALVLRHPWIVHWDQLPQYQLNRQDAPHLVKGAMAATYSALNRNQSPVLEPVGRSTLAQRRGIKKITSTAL
# Sequence of UniProt Q14012 (whole entry, looked up): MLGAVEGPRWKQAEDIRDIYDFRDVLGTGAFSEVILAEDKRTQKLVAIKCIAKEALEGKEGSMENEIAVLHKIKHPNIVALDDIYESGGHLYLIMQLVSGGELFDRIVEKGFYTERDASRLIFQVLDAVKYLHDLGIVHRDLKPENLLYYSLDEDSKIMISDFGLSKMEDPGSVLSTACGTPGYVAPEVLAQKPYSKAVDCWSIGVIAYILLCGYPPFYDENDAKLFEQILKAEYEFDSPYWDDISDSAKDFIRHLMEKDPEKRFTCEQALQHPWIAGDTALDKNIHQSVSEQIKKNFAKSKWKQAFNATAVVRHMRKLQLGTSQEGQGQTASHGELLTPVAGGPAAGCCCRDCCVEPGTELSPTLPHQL

# Block 1
# Compound: O=C1CCc2cc(Nc3cc(OC4CCOCC4)c([N+](=O)[O-])cc3Cl)ccc2N1
# Method: competition with immobilised ligand
# Tested at: 1 µM
target,observed,remaining binding [%]
"ITK (Homo sapiens, UniProt Q08881)",cell-free assay,95
"AKT3 (Homo sapiens, UniProt Q9Y243)",cell-free assay,94
"Cyclin-dependent kinase 4, with cyclin D1 (CDK4, Homo sapiens, UniProt P11802)",cell-free assay,78
"TIE1 (Homo sapiens, UniProt P35590)",cell-free assay,100
"STK33 (Homo sapiens, UniProt Q9BYT3)",cell-free assay,77
"IRAK4 (Homo sapiens, UniProt Q9NWZ3)",cell-free assay,100
"CAMKK1 (Homo sapiens, UniProt Q8N5S9)",cell-free assay,100
"MTOR (Homo sapiens, UniProt P42345)",cell-free assay,89
"Tyrosine-protein kinase ABL1, phosphorylated (ABL1, Homo sapiens, UniProt P00519, E255K)",binding,88
"FYN (Homo sapiens, UniProt P06241)",cell-free assay,64
"LCK (Homo sapiens, UniProt P06239)",cell-free assay,100
"MAP3K13 (Homo sapiens, UniProt O43283)",cell-free assay,91
"NTRK1 (Homo sapiens, UniProt P04629)",cell-free assay,94
"COQ8B (Homo sapiens, UniProt Q96D53)",cell-free assay,100
"AXL (Homo sapiens, UniProt P30530)",cell-free assay,96
"MAST1 (Homo sapiens, UniProt Q9Y2H9)",cell-free assay,100
"PAK4 (Homo sapiens, UniProt O96013)",cell-free assay,100
"EGFR (Homo sapiens, UniProt P00533)",cell-free assay,100
"HUNK (Homo sapiens, UniProt P57058)",cell-free assay,93
"MARK3 (Homo sapiens, UniProt P27448)",cell-free assay,100
"Tyrosine-protein kinase ABL1, phosphorylated (ABL1, Homo sapiens, UniProt P00519, T315I)",cell-free assay,80

# Block 2
# Organism: Sarcocystis neurona
# Observed: parasite growth
# Tested at: 10 µM
# Time: 96 h
# Notes: second screen
# Reference: untreated
SMILES,log2 fold change
COc1cc(/C=C/c2ccc(O)cc2)cc(OC)c1,1.6
CC(=O)NC[C@H]1CN(c2ccc(N3CCOCC3)c(F)c2)C(=O)O1,-0.11
O=C(O)CCNC(=O)c1ccc(/N=N/c2ccc(O)c(C(=O)O)c2)cc1,0.24
NS(=O)(=O)c1cc2c(cc1Cl)N=CNS2(=O)=O,0.16
Oc1ccc(C2CNCCc3c2cc(O)c(O)c3Cl)cc1 (centres unmarked),0.56
COc1cccc2c1C(=O)c1c(O)c3c(c(O)c1C2=O)C[C@@](O)(C(=O)CO)C[C@@H]3O[C@H]1C[C@H](N)[C@H](O)[C@H](C)O1,-0.79
COc1ccc2cc(CCC(C)=O)ccc2c1,2.51
CN(C)CC[C@@H](c1ccc(Cl)cc1)c1ccccn1,0.25
NC(=O)N1c2ccccc2CC(=O)c2ccccc21,-1.09
CC[N+](C)(C)c1cccc(O)c1,0.2
[H]/N=C(/NCCCCC)N/N=C/c1c[nH]c2ccc(OC)cc12,-6.28
CC1=C(/C=C/C(C)=C/C=C/C(C)=C/C(=O)O)C(C)(C)CCC1,0.54

# Block 3
# Cell line: mouse MPNST tumor cells
# Method: high-content immunofluorescence imaging
# Refers to: nuclear SOX9
# Tested at: 10 µM
# Time: 12 h
# Notes: mean of 2 replicates
# Reference: DMSO control
# Direction: higher = more nuclear SOX9
SMILES,nuclear SOX9 intensity
Cc1c(Cl)cccc1Nc1ncccc1C(=O)O,97.8 % of DMSO
c1ccc(Cn2c(NCc3ccco3)nc3ccccc32)cc1,97.9 % of DMSO
CN(CCOc1ccc(-c2ccc3c(c2)OCO3)cc1C(C)(C)C)CC(=O)O,101 % of DMSO
Cc1c(N(C)C)c(=O)n(-c2ccccc2)n1C,103 % of DMSO
Cc1ccccc1N1C(=O)c2cc(S(N)(=O)=O)c(Cl)cc2NC1C (centres unmarked),94.8 % of DMSO
Cc1ccc(NC(=O)CCCCCC(=O)Nc2ccccc2N)cc1,89.8 % of DMSO
CCCCOc1ccc(OCCCN2CCOCC2)cc1,115 % of DMSO
Cc1cc2cc3c(C)cc(=O)oc3c(C)c2o1,92.2 % of DMSO and 111 % of DMSO
CC1(C)O[C@@H]2C[C@H]3[C@@H]4CCC5=CC(=O)CC[C@]5(C)[C@@]4(F)[C@@H](O)C[C@]3(C)[C@]2(C(=O)CCl)O1,88.1 % of DMSO

# Block 4
# SMILES: Cc1cc2ncc(-c3ccccc3)nc2cc1C
# Observed: enzyme activity
# Action: inhibitor
# Tested at: 0.5 µM
# Reference: control
target,remaining activity
"CSNK1D (Homo sapiens, UniProt P48730)",90.7%
"SIK2 (Homo sapiens, UniProt Q9H0K1)",87.4%
"SGK2 (Homo sapiens, UniProt Q9HBY8)",101%
"PRKCQ (Homo sapiens, UniProt Q04759)",97%
"RPS6KA3 (Homo sapiens, UniProt P51812)",94.2%
"IGF1R (Homo sapiens, UniProt P08069)",86.8%
"CAMK1 (Homo sapiens, UniProt Q14012)",96.2%
"TEC (Homo sapiens, UniProt P42680)",98.1%
"SRPK1 (Homo sapiens, UniProt Q96SB4)",103%
"TYRO3 (Homo sapiens, UniProt Q06418)",90.9%
"JAK1 (Homo sapiens, UniProt P23458)",103%
"PRKCZ (Homo sapiens, UniProt Q05513)",88.6%
"CLK2 (Homo sapiens, UniProt P49760)",102%
"EPHA2 (Homo sapiens, UniProt P29317)",103%
"MAP3K20 (Homo sapiens, UniProt Q9NYL2)",102%
"Cyclin-dependent kinase 2, with cyclin E (CDK2, Homo sapiens, UniProt P24941)",91.8%
"PAK6 (Homo sapiens, UniProt Q9NQU5)",97.4%
"PAK1 (Homo sapiens, UniProt Q13153)",97.8%
"EPHA6 (Homo sapiens, UniProt Q9UF33)",93%
"CSNK1E (Homo sapiens, UniProt P49674)",85.5%
"FLT1 (Homo sapiens, UniProt P17948)",85.2%
"CLK1 (Homo sapiens, UniProt P49759)",95.4%
"CAMKK1 (Homo sapiens, UniProt Q8N5S9)",98%

# Repeated from above (block 2):
SMILES,log2 fold change
COc1cc(/C=C/c2ccc(O)cc2)cc(OC)c1,1.6
Oc1ccc(C2CNCCc3c2cc(O)c(O)c3Cl)cc1 (centres unmarked),0.56
[H]/N=C(/NCCCCC)N/N=C/c1c[nH]c2ccc(OC)cc12,-6.28
CC1=C(/C=C/C(C)=C/C=C/C(C)=C/C(=O)O)C(C)(C)CCC1,0.54
CN(C)CC[C@@H](c1ccc(Cl)cc1)c1ccccn1,0.25
O=C(O)CCNC(=O)c1ccc(/N=N/c2ccc(O)c(C(=O)O)c2)cc1,0.24
NS(=O)(=O)c1cc2c(cc1Cl)N=CNS2(=O)=O,0.16
